Results from different studies.
Each line is one published result; not all experiments were run side by side. Values joined by “and” are separate records of one study, mostly repeats; a detail may differ. ± gives the spread as reported.

Structure (SMILES) | target or system | test | system | setting | how to read | endpoint | value
O=C(N/N=C/c1ccc2c(ccc[n+]2Cc2ccccc2)c1)c1cccc(C(=O)N/N=C/c2ccc3c(ccc[n+]3Cc3ccccc3)c2)c1 | 22CTA telomeric G4-DNA antiparallel | FRET melting |  | 1 µM, K10 buffer, DNA 0.2 µM |  | ΔTm | 14 ± 0.2 °C
C=CC(=O)Nc1cccc(Cn2ncc3cnc(Nc4cnn(CCOC)c4)nc32)c1 | HUNK human | binding, KINOMEscan |  | 100 nM | lower = stronger binding | percent of control | 100%
Nc1ncc(-c2cc(-c3cnn(CC(F)(F)F)c3)ncc2F)nc1C(=O)NC1CNCC(F)C1 (centres unmarked) | BRSK2 | KINOMEscan |  | 1 µM | relative to: DMSO control | remaining binding | 35%
c1ccc(-c2n[nH]cc2-c2ccnc3ccccc23)nc1 | YAK1 (Candida albicans) | kinase binding, MIB/MS competition | Candida albicans lysate | 10 µM | relative to: DMSO | log2 fold change | -0.42
O=c1c(-c2cnn(-c3ccc(Cl)cc3)c2)c(C(F)(F)F)oc2c(O)c(O)ccc12 | ROC1-CUL1 E3 subcomplex | Cdc34-ubiquitin discharge |  | 37.5 µM | relative to: input | Cdc34b-ubiquitin remaining | 3.5%
Cn1ccc2cc(-n3c(=O)[nH]c4sc5c(c4c3=O)CCCC5)ccc21 | mouse phorbol ester site | radioligand binding |  | 10 µM |  | inhibition | -6%
O=c1c(Oc2ccccc2)c(C(F)(F)F)oc2c(O)c(O)ccc12 | ROC1-CUL1 E3 subcomplex | Cdc34-ubiquitin discharge |  | 1 µM | relative to: input | Cdc34b-ubiquitin remaining | 1.9%
O=C(N/N=C/c1ccc(C[n+]2ccccc2)cc1)N/N=C/c1ccc(C[n+]2ccccc2)cc1 | 22CTA telomeric G4-DNA antiparallel | FRET melting |  | 1 µM, K10 buffer, DNA 0.2 µM, added: ds26 10 µM |  | ΔTm | 3.6 ± 0.1 °C
CN(C)C(=O)CNC(=O)c1ccc([C@H]2[C@@H](F)[C@@H](F)C[C@@H](F)[C@H]2F)cc1 |  | liver microsome stability | rat liver microsomes | 1 µM |  | hepatic clearance | 6.1 mL/min/kg
C=CC(=O)N1[C@@H](c2ccc3c(c2)OCO3)c2[nH]c3ccccc3c2C[C@H]1C(=O)N1CCN(C)CC1 | CCNE1 WT-3xFLAG:CDK2 complex | co-IP TMT proteomics, item: ANKRD17 | HEK-293T | 20 µM, 6 h | relative to: DMSO | log2 fold change | -0.14
O=C(CCCc1cn(C[C@H]2O[C@@H]3O[C@H]4[C@H](O)[C@@H](O)[C@@H](O[C@H]5[C@H](O)[C@@H](O)[C@@H](O[C@H]6[C@H](O)[C@@H](O)[C@@H](O[C@H]7[C@H](O)[C@@H](O)[C@@H](O[C@H]8[C@H](O)[C@@H](O)[C@@H](O[C@H]9[C@H](O)[C@@H](O)[C@@H](O[C@H]2[C@H](O)[C@H]3O)O[C@@H]9Cn2cc(CCCC(=O)N[C@H]3CCOC3=O)nn2)O[C@@H]8Cn2cc(CCCC(=O)N[C@H]3CCOC3=O)nn2)O[C@@H]7Cn2cc(CCCC(=O)N[C@H]3CCOC3=O)nn2)O[C@@H]6Cn2cc(CCCC(=O)N[C@H]3CCOC3=O)nn2)O[C@@H]5Cn2cc(CCCC(=O)N[C@H]3CCOC3=O)nn2)O[C@@H]4Cn2cc(CCCC(=O)N[C@H]3CCOC3=O)nn2)nn1)N[C@H]1CCOC1=O | LuxR | bioluminescence induction, agonist | Escherichia coli, DH5α sensor strain |  |  | EC50 | 64 µM
O=C(N/N=C/c1cc[n+](CC2CC2)c2ccccc12)c1ccc2ccc3ccc(C(=O)N/N=C/c4cc[n+](CC5CC5)c5ccccc45)nc3c2n1 | 22CTA telomeric G4-DNA antiparallel | FRET melting |  | 1 µM, K10 buffer, DNA 0.2 µM, added: ds26 10 µM |  | ΔTm | 16.2 ± 1.7 °C
CC(C)Oc1cc(Cl)ccc1CNc1cc(-c2ccccc2)nc2ncnn12 | endogenous β-adrenergic receptors | cAMP level, cAMP GloSensor | mock-transfected cells | 10 µM, added: isoprenaline 30 nM | higher = more cAMP | cAMP luminescence | 25400 a.u. and 27800 a.u. and 24400 a.u.
C=CC(=O)N1[C@@H](c2ccc3c(c2)OCO3)c2[nH]c3ccccc3c2C[C@H]1C(=O)NC1CC1 | PTGES2 Cys113 human | cysteine IA-DTB labelling, covalent inhibitor, MS-ABPP | 22Rv1 | 20 µM, 3 h |  | inhibition | 87%
C[n+]1ccc(/C=N/NC(=O)c2cccc(C(=O)N/N=C/c3cc[n+](C)cc3)n2)cc1 | 22CTA telomeric G4-DNA antiparallel | FRET melting |  | 1 µM, K10 buffer, DNA 0.2 µM |  | ΔTm | 4.2 ± 1.3 °C
O=C(Nc1ccc([C@H]2[C@@H](F)[C@@H](F)C[C@@H](F)[C@H]2F)cc1)C1CC1 |  | liver microsome stability | dog liver microsomes | 1 µM |  | hepatic clearance | 24 mL/min/kg
O=C(N/N=C/c1cc[n+](CC2CC2)c2ccccc12)N/N=C/c1cc[n+](CC2CC2)c2ccccc12 | 22CTA telomeric G4-DNA antiparallel | FRET melting |  | 1 µM, K10 buffer, DNA 0.2 µM, added: ds26 10 µM |  | ΔTm | 5.6 ± 1.9 °C
Cc1[nH]nc2c1N=C(c1ccccc1Cl)c1cnc(N3CCOCC3)cc1N2 | L-type calcium channel dihydropyridine site, rat | radioligand binding |  | 10 µM |  | inhibition | 32%
OC[C@H]1O[C@@H]2O[C@H]3[C@H](O)[C@@H](O)[C@@H](O[C@H]4[C@H](O)[C@@H](O)[C@@H](O[C@H]5[C@H](O)[C@@H](O)[C@@H](O[C@H]6[C@H](O)[C@@H](O)[C@@H](O[C@H]7[C@H](O)[C@@H](O)[C@@H](O[C@H]1[C@H](O)[C@H]2O)O[C@@H]7CO)O[C@@H]6CO)O[C@@H]5CO)O[C@@H]4CO)O[C@@H]3CO | LuxR | Escherichia coli sensor |  | 4 µM | higher = stronger induction | bioluminescence induction | 821 ± 90 RLU
C[n+]1cc(/C=N/NC(=O)c2cccc(C(=O)N/N=C/c3cc4ccccc4[n+](C)c3)n2)cc2ccccc21 | 22CTA telomeric G4-DNA antiparallel | FRET melting |  | 1 µM, K10 buffer, DNA 0.2 µM |  | ΔTm | 12.1 ± 0.5 °C

Repeated from above:
Structure (SMILES) | target or system | test | system | setting | how to read | endpoint | value
O=C(N/N=C/c1ccc(C[n+]2ccccc2)cc1)N/N=C/c1ccc(C[n+]2ccccc2)cc1 | 22CTA telomeric G4-DNA antiparallel | FRET melting |  | 1 µM, K10 buffer, DNA 0.2 µM, added: ds26 10 µM |  | ΔTm | 3.6 ± 0.1 °C
